Results pooled from the literature.
Lines come from different studies, so protocols differ. ± gives the spread as reported.

COc1cc([C@@H]2c3cc4c(cc3C=C(C=O)[C@H]2C(=O)OCCCn2cnc3c(Cl)ncnc32)OCO4)cc(OC)c1OC gave a selectivity index of 0.7 (Leishmania; mouse splenocytes; baseline: CC50 over amastigote EC50).
CCC1NC(=O)C(CCCNC(=N)N)NC(=O)C(C)(NC(=O)C(C)C)CCCCNC(=O)C(c2ccccc2)NC1=O (stereo not shown): histone methylation “no effect” (immunoblot, item: H3K27me3, H3K36me3, H3K79me3; MLL-AF9 leukaemia cells, mouse; dose not given, four days).
Under “inhibition zone diameter”, CCOC(=O)C1=C(C)NC2=C(C(=O)CC(C)(C)C2)C1c1ccc(OCC(=O)NN=Cc2cccc(C=O)c2)cc1OCC(=O)NN=Cc1cccc(C=O)c1 (stereo not shown) is recorded as 3.5 ± 0.6 mm (Proteus vulgaris; concentration not given, 24 h).
For Cc1cc(SCc2sc(-c3cc(Cl)cc(Cl)c3)nc2C)ccc1OCC(=O)O, the CC50 was > 50 µM (HEK293T; 18 h).
Cc1ncsc1-c1ccc([C@H](C)NC(=O)[C@@H]2C[C@@H](O)CN2C(=O)[C@@H](NC(=O)CCCCCCC(=O)N2CCN(C[C@]3(C)CCC(c4ccc(Cl)cc4)=C(CN4CCN(c5ccc(C(=O)NS(=O)(=O)c6ccc(N[C@H](CCN7CCOCC7)CSc7ccccc7)c(S(=O)(=O)C(F)(F)F)c6)cc5)CC4)C3)CC2)C(C)(C)C)cc1 — result for triglyceride level: “decreased” (STAM mice NASH-HCC model, liver; dose not given, day 90, treated from day 45).
CN(C)C(=O)Cn1cc(-c2ccc(-c3cncc4ccncc34)cc2)cn1 — result for viability: “no effect” (HL-60; flow cytometry; concentration not given, 24 h).
COc1cc([C@@H]2c3cc4c(cc3[C@@H](CC(C)(C)O)[C@H]3COC(=O)[C@H]23)OCO4)cc(OC)c1OC gave a selectivity index of > 1.9 (Leishmania infantum; Alamar Blue; HepG2; baseline: CC50 HepG2 over EC50 amastigotes).
CCOc1ccccc1Nc1nnc(SCC(=O)Nc2cc(F)ccc2F)s1 has an IL-2 secretion of 202 ± 11 pg/mL (co-cultured human PBMCs; MucilAir airway epithelium; 10 µM, 48 h, together with: anti-CD3/CD28).
With COc1cc([C@@H]2c3cc4c(cc3C=C(C=O)[C@H]2C(=O)OCc2ccc(CBr)cc2)OCO4)cc(OC)c1OC the EC50 was 79.9 ± 5.7 µM (Leishmania infantum; promastigote, iRFP).
The maximum inhibition of C=CC(=O)N1CCC(c2cc(Nc3cc4n(n3)CCOC4)c3ncnn3c2)C1 (single isomer, unassigned) is reported as 27.1% (Ramos; calcium flux, FLIPR; 2 h preincubation, together with: anti-IgM).
The selectivity index of COC(=O)[C@@H]1C(c2nc3cc(C(F)(F)F)ccc3s2)=Cc2cc3c(cc2[C@H]1c1cc(OC)c(OC)c(OC)c1)OCO3 is reported as > 2.4 (Leishmania; mouse splenocytes; baseline: CC50 over amastigote EC50).
For C/C=C/Cn1c(Cc2cc(OC)c(OC)c(OC)c2)nc2c(N)ncnc21, the Ki was 22.8 ± 2 µM (Grp94; binding, fluorescence polarization competition).
CC(=NN=c1[nH]c2cc(F)c(F)cc2n1C)c1ccc(F)cn1: “tumour volume reduction” > 60% (MDA-MB-231 xenograft, SCID mice; i.p., 10 mg/kg/day, end of treatment; baseline: vehicle).
